Experimental data pooled from the literature.
Compare with care: the assays were run in different laboratories. Numbers after ± are the reported error. Bridges are numbered along the chain shown (N, C = ends). Where no end group is shown, it is not given here.

Molecule	assay	system	setting	scale	quantity	value
CC[C@@H](C(=O)Nc1ccc(C(N)=O)c(F)c1)n1cc(OC)c(-c2cc(Cl)ccc2-n2cc(C(F)(F)F)nn2)cc1=O	–	New Zealand White rabbit, FeCl2 carotid injury	intravenous bolus, 20 mg/kg	–	thrombus weight	2.2 mg
insulin glulisine	–	obese type 2 diabetes patients	subcutaneous, 0.2 U/kg, within 2 min before 692 kcal meal	–	plasma glucose AUC(0-1 h)	149 mg·h/dL
CC[C@H](C)[C@H](NC(=O)[C@H](Cc1ccc(O)cc1)NC(=O)[C@@H]1CSSC[C@H](NC(=O)[C@@H](CCC(=O)O)NC(=O)[C@H](Cc2ccc(O)cc2)NC(=O)[C@H](CCNC(=O)CCC(C(=O)O)N2CCN(CC(=O)O)CCN(CC(=O)O)CCN(CC(=O)O)CC2)NC(=O)CCC(C(=O)O)N2CCN(CC(=O)O)CCN(CC(=O)O)CCN(CC(=O)O)CC2)C(=O)N2C[C@H](O)C[C@H]2C(=O)N[C@@H](Cc2ccc(O)c(Cl)c2)C(=O)NCC(=O)N[C@@H](CC(C)C)C(=O)N1)C(=O)N[C@@H](CCC(N)=O)C(=O)NCc1ccc(CNC(=O)[C@H](CCNC(=O)CCC(C(=O)O)N2CCN(CC(=O)O)CCN(CC(=O)O)CCN(CC(=O)O)CC2)NC(=O)CCC(C(=O)O)N2CCN(CC(=O)O)CCN(CC(=O)O)CCN(CC(=O)O)CC2)cc1 (stereo partly drawn)	T1-weighted MRI, 9.4 T	nude mice, BT-20 breast cancer xenograft, tumour periphery	iv, 20 µmol/kg, 85 min	baseline: baseline	contrast-to-noise ratio increase	7.2 ± 2.9
Oc1cccc2ccccc12	fish short-term reproduction	Oryzias latipes, female, liver	80.0 µg/L, 21 d	–	vitellogenin level	3220 ± 623 ng/mg liver
CCCn1cnc(C[C@H](NC(=O)[C@@H]2CCC(=O)C2)C(=O)N2CCC[C@H]2C(N)=O)c1	–	Swiss albino mice	intravenous, 10 µmol/kg, with: pentobarbital 50 mg/kg i.p. 10 min later	–	sleeping time	34.4 ± 1.4 min
CC1(C)CCC(CN2CCN(c3ccc(C(=O)NS(=O)(=O)c4ccc(NCC5CCOCC5)c([N+](=O)[O-])c4)c(Oc4cnc5[nH]ccc5c4)c3)CC2)=C(c2ccc(Cl)cc2)C1	cell kill, PI exclusion flow cytometry	normal CD21+ B lymphocytes, dog, peripheral blood	24 h	–	EC50	1140 ± 1550 nM
CS/C(S)=N/CCCC[S+](C)[O-] (racemic)	RT-PCR, refers to: Gckr	rat, liver	oral gavage, 200 mg/kg, 96 h, dosed for four days	baseline: vehicle	mRNA fold change	1.71
CCCCCN(C)CC(=O)[C@H](CC(=O)O)NC(=O)[C@H](CC)n1cc(C(C)(C)C)nc(NCc2nonc2C)c1=O	αII-spectrin cleavage	rat, CLP sepsis, thymus	iv infusion, 24 h	inhibition	ED50	~0.5 mg/kg/h
CC1CNc2c(cccc2S(=O)(=O)N[C@@H](CCCNC(=N)N)C(=O)N2CC[C@@H](C)C[C@@H]2C(=O)O)C1 (stereo partly drawn)	platelet activation, inhibitor, flow cytometry, refers to: CD62P	human whole blood	with: tissue factor	–	EC50	22 nM
CCC(C)(C)C(=O)O[C@H]1C[C@@H](C)C=C2C=C[C@H](C)[C@H](CC[C@@H]3C[C@@H](O)CC(=O)O3)[C@H]21	–	dogs with hyperlipidaemia	1 mg/kg/day, one month	–	plasma cholesterol	269 ± 115 mg/dL
CC(C)(Sc1ccncc1-c1ccc(C#N)c2ccccc12)C(=O)O	–	male gout patients, urine	300 mg, 0 to 24 h, with: verinurad 10 mg alone or combined	baseline: baseline	renal uric acid clearance	122%
CCCCc1nc(Cl)c(CO)n1Cc1ccc(-c2ccccc2-c2nn[nH]n2)cc1	–	isolated rat cremaster arterioles	10 µM, with: post-immune serum 1:100	baseline: baseline	vessel diameter	97 ± 3%
C[C@H]1C[C@H]2CSC(N)=N[C@@]2(c2nc(NC(=O)c3ccc(OC(F)F)cn3)cs2)CO1	refers to: CSF total Aβ	healthy adults	oral, 50 mg once daily, 14 days	baseline: placebo-adjusted baseline	percent change from baseline	-60.1%
COc1ccc(Nc2c(-c3ccc(S(C)(=O)=O)cc3)nc3cccc(C)n23)cc1	formalin test	male Wistar rat	intraperitoneal, 40 mg/kg	baseline: control group	pain score AUC	decreased
Cc1ccc(NC(=O)c2ccc(CN3CCN(C)CC3)cc2)cc1Nc1nccc(-c2cncc(-c3oncc3C)c2)n1	–	mild-to-moderate Parkinson's disease patients	oral, 100 mg once daily, day 7, practically defined OFF state	direction not given	MDS-UPDRS part II score	8.2 ± 4.9
GKWHCTTKFPHHYCLYG (disulfide 5-14 (inferred)) (cyclic, disulfide)	–	β2-AR transgenic mouse, right ventricle lysate	intravenous, 0.5 mg/kg, 4 h	baseline: nontransgenic mice	fluorescence intensity	1.95 fold
COCCSc1nnc(C23CC4CC(CC(C4)C2)C3)n1-c1ccccc1	paw oedema	rat	intraperitoneal, 20 mg/kg	–	inhibition in vivo	2.53%
insulin lispro	euglycemic clamp	obese type 2 diabetes patients	subcutaneous, 10 units	–	total glucose infused	92 mg/kg
Cn1c(=O)n([C@@H]2O[C@H](COP(=O)(O)CP(=O)(O)O)[C@@H](O)[C@H]2O)cc/c1=N\OCc1ccc(Cl)cc1	dot blot, refers to: soluble CD73	culture medium	range over 1 to 100 µM, 15 min, rat cells	–	CD73 release into medium	increased
COc1ccc(Nc2c(-c3ccc(S(C)(=O)=O)cc3)nc3cc(C)ccn23)cc1	formalin test	male Wistar rat	intraperitoneal, 40 mg/kg	baseline: control group	pain score AUC	decreased

Molecule	assay	system	setting	scale	quantity	value
CC(C)C[C@@H]1NC(=O)[C@H](CCCNC(=N)N)NC(=O)[C@H](Cc2c[nH]c3ccccc23)NC(=O)[C@H](CCCNC(=N)N)NC(=O)CNC(=O)CNC(=O)[C@H](CCCCN)NC(=O)CNC(=O)[C@H](Cc2c[nH]c3ccccc23)NC(=O)[C@H](CC(=O)O)NC(=O)[C@@H](NC(=O)[C@H](CCC(=O)O)NC(=O)[C@H](C)NC(=O)CCCC[C@@H]2SC[C@@H]3NC(=O)N[C@@H]32)CSSC[C@@H](C(=O)NCC(=O)N2CCC[C@H]2C(=O)O)NC(=O)[C@H](C)NC(=O)[C@H](CCC(=O)O)NC(=O)[C@H]([C@@H](C)O)NC(=O)[C@H](CCCCN)NC(=O)CNC(=O)[C@H](CO)NC(=O)[C@H](C)NC(=O)CNC(=O)[C@@H]2CCCN2C(=O)[C@H](Cc2c[nH]c3ccccc23)NC1=O	thioflavin S, Congo red	APPswe/PSEN1(A246E) mouse, young, brain hippocampus	s.c., once monthly, 5 to 12 months, with adjuvant	baseline: mock-immunized	amyloid plaque burden	20 ± 4%
Clc1ccc2[nH]c(-c3cccc(OCc4ccccc4)c3)nc2c1	ABTS scavenging, absorbance	–	–	–	IC50	1850 nM
CC(C)Cc1ccc(C(C)C(=O)O)cc1 (stereo not drawn)	paw pressure test	rat, CFA arthritis	oral, 100 mg/kg, day 14 after CFA	–	pain threshold	65.3 ± 2.4 g
CCOc1ccc(C[C@@H](N)C(=O)N[C@@H](Cc2ccccc2)C(=O)NC2CCN(C(=N)N)CC2)cc1.O=C(O)C(F)(F)F.O=C(O)C(F)(F)F	SD-OCT	mouse, retina	subcutaneous osmotic pump, 1.60 mg/kg/day, 48 h, with: VEGF 100 ng/eye intravitreal	baseline: baseline	increase in retinal thickness	16.1 ± 3.8 µm
CC(C)n1nc(-c2ccc3oc(N)nc3c2)c2c(N)ncnc21	–	Pten L/L mouse	oral gavage, 1 mg/kg daily, 60 days	–	invasive prostate cancer progression	inhibited
C[C@@H]1COCCN1c1cc([C@]2(O)C[C@H]3CC[C@@H](C2)O3)c2cnn(-c3cc[nH]n3)c2n1	refers to: phospho-DNA-PKcs	mouse, LoVo xenograft, tumour	7 mg/kg daily for 7 days, 24 h after last dose	baseline: background	fold induction	2.7
insulin degludec	euglycaemic clamp	healthy human subjects	subcutaneous, deltoid, 0.4 U/kg, 0 to 24 h	–	AUC(GIR) mean estimate	2960 mg/kg
Cc1c(C(=O)NN2CCCCC2)nn(-c2ccc(Cl)cc2Cl)c1-c1ccc(Cl)cc1	–	rat, diet-induced obese, plasma	peripheral, 10 mg/kg per day, 6 days	–	corticosterone level	73.3 ± 10.1 ng/mL
cilengitide	–	Sprague-Dawley rats, ethanol control, colon	ip, 18 mg/kg/day, 42 d	–	collagen deposition	21 ± 2.2 % muscularis volume
CC(C)C[C@H](NC(=O)[C@H](CO)NC(=O)[C@H](CCCNC(=N)N)NC(=O)[C@H](CC(=O)O)NC(=O)[C@H](CCC(=O)O)NC(=O)[C@H](C)NC(=O)[C@@H]1CCCN1C(=O)[C@H](C)NC(=O)[C@H](CCC(=O)O)NC(=O)[C@@H]1CCCN1C(=O)[C@@H]1CCCN1)C(N)=O	HPLC-EC	F344 rat, normal, substantia nigra	intranasal, 100 µg, 5 days/week for 3 weeks	–	DOPAC level	103 ± 20 ng/g
Cn1c(-c2ccc(Br)s2)nc2cc(-c3nnc(-c4cc(-c5ccc(Cl)cc5Cl)nc5ccccc45)o3)ccc21	–	human platelet-rich plasma	concentration not given	–	plasma recalcification time	390 s
neuropeptide Y	–	Sprague Dawley rat, urethane-anaesthetised	intravenous, 5 nmol	–	pressor response onset time	32 ± 8 s
CC(=O)O[C@@]12CO[C@@H]1C[C@H](O)[C@@]1(C)C(=O)[C@H](O)C3=C(C)[C@@H](OC(=O)[C@H](O)[C@@H](NC(=O)OC(C)(C)C)c4ccccc4)C[C@@](O)([C@@H](OC(=O)c4ccccc4)[C@H]21)C3(C)C	–	mouse, PC-3 xenograft	5 mg/kg once weekly for 3 weeks, day 11 after inoculation, started after 2 weeks growth	–	tumour volume	78.8 ± 16 mm3
Polymyxin B	–	human whole blood	125 ng/mL, 4 h, 37 °C, with: E. coli LPS 0.5 ng/mL	baseline: LPS without compound	IL-10 release	38.5 ± 16.2%
O=c1c(O)c(-c2ccc(O)c(O)c2)oc2cc(O)cc(O)c12	cell proliferation, CellTiter-Glo	cord blood CD34+ cells, human	24 h, lowest dose with significant inhibition	baseline: vehicle	lowest effective concentration	250 to 500 µM
C#Cc1cc(Oc2cnc(N)nc2N)c(C(C)C)cc1OC	immunohistochemistry	Sprague-Dawley rat, L6 spinal cord	intrathecal, 300 nmol, with: 1% acetic acid in bladder	baseline: vehicle	reduction of pERK-positive cells	46.4 ± 12%
COCCOCCOc1ccc(C2=N[C@@](C)(C(=O)O)CS2)c(O)c1	–	bile duct-cannulated rats, non iron-overloaded, bile	oral, 300 µmol/kg	–	duration of iron excretion	> 48 h
CC(=O)Nc1ccc(C2=NNC(=O)C[C@H]2C)cc1	–	guinea pig papillary muscle	up to 30 µM, with: forskolin 0.1 µM	baseline: baseline	increase in contraction force	334 ± 31 mg
CC(C)[C@@H]1NC(=O)[C@@H]2Cc3ccc(cc3)O[C@H]3C[C@H](NC3=O)C(=O)N3CCC[C@H]3C(=O)N[C@@H](Cc3ccc(O)cc3)C(=O)N[C@@H](C(=O)N[C@@H](C(C)C)C(=O)N2)c2cc(ccc2O)C[C@@H](C(=O)O)NC1=O	echocardiography	ICR mice, doxorubicin heart failure	intraperitoneal, 100 mg/kg daily, day 28	–	LV fractional shortening	increased
